Results gathered from unrelated publications.
Parts stem from different laboratories: compare values within a part only.

Block 1 — technique: protein binding microarray; form: double-stranded DNA, one strand shown; medium: in vitro; tested at: not given; reference: not given; reading: higher = stronger binding
Target: Histone acetyltransferase KAT6A, winged helix 1, GST fusion (KAT6A, Homo sapiens, UniProt Q92794, residues 1-85)
Notes: 8-mer, flanks averaged, mean of 2 arrays, mostly near background
Construct (chain): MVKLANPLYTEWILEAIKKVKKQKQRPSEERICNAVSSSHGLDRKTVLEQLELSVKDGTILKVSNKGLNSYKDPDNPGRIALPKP
Oligonucleotide | E-score
GACGGCCA | 0.344
ACAGGGAA | -0.27
GCTGGCAA | -0.0885
AAAGCCGA | 0.143
AATGGTGG | -0.0595
CCTATCCG | 0.112
ATCTGGTG | -0.243
AGTTGATA | -0.139
CTAGATTC | -0.237
AGAGTCCT | -0.11
GGCTTCCC | 0.0487
GAGTCGAC | 0.023
GACGTGCC | 0.0824
CTGGGCAC | -0.0294
CATCCCCC | -0.0208
AAAACCCA | -0.127
ATAGTCAT | -0.175
CAGGGGCA | -0.114
ACTACTGG | -0.215
AGGCTCCG | 0.0613
CACAAACA | -0.245
GACTCAAC | -0.0245
GGGGCACA | -0.106

Block 2 — technique: RNA Bind-n-Seq; form: RNA; medium: in vitro; tested at: not given; reference: input RNA pool; reading: higher = stronger binding
Target: RING finger protein unkempt homolog, zinc fingers 1-6, GST-SBP tag (UNK, Homo sapiens, UniProt Q9C0B0, residues 30-357)
Notes: RNA with constant flanks, human-mouse chimeric sites, ends assumed
Constant ends, left off below: GGGAGUUCUACAGUCCGACGAUC … CAACAGAGGAUUGAGCAUCA
Target sequence (chain): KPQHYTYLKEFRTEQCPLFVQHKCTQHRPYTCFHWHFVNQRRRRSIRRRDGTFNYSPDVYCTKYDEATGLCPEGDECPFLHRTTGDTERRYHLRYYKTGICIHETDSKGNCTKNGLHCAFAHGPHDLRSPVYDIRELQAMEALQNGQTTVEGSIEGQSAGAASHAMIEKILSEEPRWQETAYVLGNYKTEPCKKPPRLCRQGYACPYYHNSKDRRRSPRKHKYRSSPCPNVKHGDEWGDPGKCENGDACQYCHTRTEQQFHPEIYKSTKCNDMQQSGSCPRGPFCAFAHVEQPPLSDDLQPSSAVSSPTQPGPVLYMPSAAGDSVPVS
Oligonucleotide | bound/input enrichment [ratio]
AGUGUGCAGGAAUUCAUGACCUUUACAAGUCAACUGAUUGUGGAGCGCUCGGGGAAAGGCAGCAGAGCUUCUGUCAAAGAACAAGAGUAUCUGUGCCAUGUCUACGUCCGGAGCGACAGU | 0.104
UGACAAGCACGAGCAUCAGCCAUGCCUUUCUUGGACAUACAGAAAAAGCUGGGCAUCAGCCUGGACCGGCACUUUAUGUUCCUAAGCGCAGAACAGCCCUAUAAGAACGCCGCUCGGUGC | 0.0751
UGUGCAUAUGAUGCUUGAGAUGGUUUUUGCAAAAGCAGAAAUCGCUGCAAGGUAAUCCUAAUAGAGAAAAGUGGUAUUUUAAACCUUUGAAAUAAAUGGAUGUAACUGUACCUUGGUACA | 0.774
UCCUGGUCGUGUCCCAGUGCAGGACGAUGUGAACAAAAACUCAAAGCGGACCCUCUAUUGUAGUUCUUGAUUCUCGAAAUGUGCUAUUGUUUUUAAACUUUUUUUUUUUUUUUUUAAAGA | 0.799
AGUGUGCAGGAAUUCAUGACCUUCACGAGUCAACUGAUUGUGGAACGCUCGGGGAAAGGCACUAGAGCUUCUGUCAAAGAACAAGAGUAUCUUUGCCAUGUCUACGUCCGGAGCGACAGU | 0.0728
GAGUCGAGCAAACUUGAAACUACAGAAUAUCUUGCAGCCUCAGUGUUCACUUGCUUGGCGAUAGCAUUGGGGUUUUAUAGGUUCUGGAAGGAGAACUUUAAUGCUCACUGCCGCUGCUGC | 0.13
GUAGCUGGGACUACAGAAAUGCUGGUAGUGCUCCGGCCUUGCUGAUGACUUCUGAUGUCCCAGCAAAUGUUGGCAUUGUUGACUGCUGAGAAGAUACUUCUGAGGACCCACGUCUAAGGU | 0.0618
AUAAAGGCUAUGUUGAGUGGUCCAGGUCAGUUUGCUGAGAACGAAACCAACGAGGUCAAUUUUAGAGAGAUCCCCUCACAUGUGCUAUCAAAAGUGUGCAUGUAUUUUACCUACAAGGUC | 0.146
UAAGUCCAUUUGUAAGCCUUCGCUCAUAAAGUUUUAAAUUCUGGACCAAUAGUGUUUGUUUCCUGAUUAUUGUAUCCAAUACUUUGCCUAGUAUGUAACUCAUGCUUACUGAUAAUAAAA | 0.551
UGUGCAUAUGAUGCUUGGAGAUGGUUUUGCAAAAGCAGAAAUCGCUGCAAGGUAAUCACAAUAGAUAAAAGUGGUAUUUUAAACCUUUGAAAUAAAUGGAUGUAACUGUACGUUGGUACA | 0.934
UUACCCGAGAACGAGGAUGAGCUGGAGAGCACCAACAGGCGCUACACCAAGAGGGACUGCAGCACUUUUCUCAGAACUAGUGAGACGGGCAUCGUGGAUCAGGUUAUGGUCACUCUCAAC | 0.203

Block 3 — technique: protein-binding microarray; form: double-stranded DNA, one strand shown; medium: in vitro; tested at: 2540 nM top; notes: 60-bp whole probe; with: salmon DNA 0.4 mg/ml; reference: random background probes; reading: higher = stronger binding; constant ends, left off below: GCCTAGCAC … GTCTTGATTCGCTTGACGCTGCTG
Target: Interferon regulatory factor 3, full length, phosphomimetic (IRF3, Homo sapiens, UniProt Q14653, residues 1-427, S386D/S396D/S398D/S402D/T404D/S405D)
Sequence of UniProt Q14653 (whole entry, unmodified, looked up): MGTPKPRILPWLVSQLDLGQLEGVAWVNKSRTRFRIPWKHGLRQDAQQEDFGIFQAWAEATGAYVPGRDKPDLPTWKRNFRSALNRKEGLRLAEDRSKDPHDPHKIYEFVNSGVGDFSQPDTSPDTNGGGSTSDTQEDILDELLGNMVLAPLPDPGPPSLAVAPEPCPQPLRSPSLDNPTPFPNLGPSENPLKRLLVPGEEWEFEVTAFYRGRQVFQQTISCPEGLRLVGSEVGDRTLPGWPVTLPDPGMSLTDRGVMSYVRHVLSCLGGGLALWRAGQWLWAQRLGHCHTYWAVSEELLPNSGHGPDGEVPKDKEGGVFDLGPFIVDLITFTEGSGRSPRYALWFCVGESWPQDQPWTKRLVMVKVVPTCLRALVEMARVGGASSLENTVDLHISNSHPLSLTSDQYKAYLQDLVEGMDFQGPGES
Oligonucleotide | fitted relative affinity [z-score]
GTAGATATCAGTTTCGATTAGTGCTAG | 4.66
TCATGAATGCCCTCTAACACTGTGCTA | -0.532
TCATGCTTCTGTATTCAACTGTGCTAG | -0.0482
AGATGTATGAGCCTCTGTTTGTGCTAG | -0.454
TCATCCATGCTCTGTCGCACTGTGCTA | -0.0323
CAGAGCCTCAGTCCTCACACAGTGCTA | -0.429
GACCGTATCCTACTGCTGACGTGCTAG | 2.71
AAGAATCAGGGGTTTTATCCGTGCTAG | -0.675
TTAGGTTTCCTTTGCCTTTAGTGCTAG | 4.97
TTAGGTATCGGGTTTCGGGTAGTGCTA | 2.68
TCAAATTTCTTTCTAATACTGTGCTAG | 1.76
GACGCACTGCTTTTCCTGACGTGCTAG | -0.148
TTAGAACTGAGTATCTATTAGTGCTAG | -0.228
AGCTCTTTCGTTACTTCCTCGTGCTAG | 1.68
GACGAACTGAGACTGGAGAGGTGCTAG | -0.453
TATCATTTAATTATATGGCTGTGCTAG | 1.09
TCATTTCTGAATGCTCCCACTGTGCTA | 2.16

Block 4 — technique: RNA Bind-n-Seq; form: RNA; medium: in vitro; tested at: 365 nM; reference: no-protein control; reading: higher = stronger binding
Target: RNA binding protein fox-1 homolog 2, RRM domain, GST-SBP tag (RBFOX2, Homo sapiens, UniProt O43251-10, residues 100-194)
Notes: natural RNA segment, single round, ends assumed
Constant ends, left off below: GGGAGUUCUACAGUCCGACGAUC … UGGAAUUCUCGGGUGCCAA
Construct (chain): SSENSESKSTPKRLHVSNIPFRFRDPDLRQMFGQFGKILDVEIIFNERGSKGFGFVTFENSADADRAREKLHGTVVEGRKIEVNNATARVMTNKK
Oligonucleotide | RBNS enrichment (R)
GGCUUACGUAAAGAAAGGGUCACCAUUUGAGGUCCUGCCUUACCAAUUAUGUGCUGCCCAACAACUAAAUUUGUAAUUUGUUUUCUCUACUUUGAGCAGGGUCUGAAUUU | 0.335
UAACUCCAACAGAUGUAGCCAGCAGCCUGGGCACUUGUGUUAGUGGUGCCGUUUGCUGGCUUCUCCACUAGGGUUUCAGGACAGACUACCUAGGAACUGCCUCAACCUCC | 2.11
GGCACCGGGCAGGGGCCAGUCCCUCAGCCCCUGGACCACUGGAGAAAAGGAAGACGAAGAGUUUGGAGCACCUCUCCCUAGCAUCCUCUCAGCUGGAGAGGCAGCAUUGG | 0.404
UAGGCACUGAAUUCGUCAACUCUUUUUUGUGAGCCUACUUGUGAAUAUUACCUCAGAUACCUGUUGUCACUCUUCACAGGUUAUUUAAGUUUUUGAAGCUGGGAGGAAAA | 0.347
AAAUUCCACAGAUUAUCAAGUCCUUCUCCUGCAACAAAUGCCCAAGUCAUUUUUUAAAAAUUUCUAAUGAAAGAAGUUUGUGUUCUGUCCAAAAAGUCACUGAACUCAUA | 0.4
AGCUGGAGCCGUAAUUCCGUGCCUGCCGCCGCAGCGCCGCCGACAACGCGGGUGCAGGGGGGCGCGGCUGGGCGGUGCAGCUCCGCCCGGCUCCGCCCCUGCAGCCCACA | 0.343
UAAAAAAAAAAAAAGGAUUUGAAACCAUAAAGUGUUCUGAAGAAAUUAAGUCUAUAAAAAGCAUACUUUCUUUUUUCUUUUCCUUUUUUCCCUCCACAGACAAUGUCCUC | 0.406
GGGCUGCCUUCCGCCUGGGGCUCCCUGUGACCUCUCAGUCCCCUGGCCCGGCCAGCCACCGUCCCCAGCACCCAAGCAUGCAAUUGCCUGUCCCCCCCGGCCAGCCUCCC | 4.09
AGCAGAUGUGCCUCAGUUUCCCCAUCAGACACCUACCUCACCAGGGCAUUGUGGCAGAAUUUUAGGAAGGCAUUGUACAGCCUCUAAGCAUAUCUAAGUGCCAUGAAUAC | 0.455
CUACUUUGGCAGGGGAGGGGGACAAAUGGUGGUACCUACAGAGCUCUGCAUGAAGUAGGGACCCCACACUAGAUAACCCCUCUUGUAAAGUAUGAGCCCAUCUCACUGGG | 5.61
UCAGGAUAAAGCACGGAUGGAUAAAGAAUAUUUGUCCCUUAUGGCUGAGCUAGGGGAAGCUCCUGUCCCUGCAUCUGUGGGCUCUACCUCUGGGCCUGCCACCACGCCCC | 1.84
GUGAAGUGUCUUCUGUAUUCAAAUCAAAAAAUAAUAUAUUUAAGGUAUAUAAGUGUGAAUCUCCUAUAAUGAUGGAAGAAGAGGUUCUCUUGUCUUAGAUAGAAAAGAGC | 1.72

A few entries again (block 3):
Oligonucleotide | fitted relative affinity [z-score]
GACGAACTGAGACTGGAGAGGTGCTAG | -0.453
AGCTCTTTCGTTACTTCCTCGTGCTAG | 1.68
AAGAATCAGGGGTTTTATCCGTGCTAG | -0.675
AGATGTATGAGCCTCTGTTTGTGCTAG | -0.454
TTAGGTATCGGGTTTCGGGTAGTGCTA | 2.68
TCATTTCTGAATGCTCCCACTGTGCTA | 2.16
